Assay results pooled from the literature.
Every numbered part comes from another study and shows a few of its results, in no order. Positions count from the first letter of the parent shown.
UniProt O14965, sequence (whole entry, looked up): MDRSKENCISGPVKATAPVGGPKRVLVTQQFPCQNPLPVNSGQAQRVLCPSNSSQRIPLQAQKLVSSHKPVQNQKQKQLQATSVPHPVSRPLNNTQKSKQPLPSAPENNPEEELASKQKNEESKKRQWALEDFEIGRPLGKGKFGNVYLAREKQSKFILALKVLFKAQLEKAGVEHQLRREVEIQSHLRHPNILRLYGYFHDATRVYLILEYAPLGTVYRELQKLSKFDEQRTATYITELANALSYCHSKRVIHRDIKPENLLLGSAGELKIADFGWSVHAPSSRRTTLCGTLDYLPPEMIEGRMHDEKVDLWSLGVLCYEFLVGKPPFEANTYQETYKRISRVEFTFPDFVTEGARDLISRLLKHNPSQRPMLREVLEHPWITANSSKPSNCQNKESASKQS

Sample 1
Target: CCND3, cyclin fold, Cln2 fusion (human)
Technique: yeast growth competition, sequencing
Matrix: yeast
Notes: weak parent motif
Relative to: not given
Reading: higher = stronger binding
Parent: viral docking peptide; KGVKRKLFAEDSS; partner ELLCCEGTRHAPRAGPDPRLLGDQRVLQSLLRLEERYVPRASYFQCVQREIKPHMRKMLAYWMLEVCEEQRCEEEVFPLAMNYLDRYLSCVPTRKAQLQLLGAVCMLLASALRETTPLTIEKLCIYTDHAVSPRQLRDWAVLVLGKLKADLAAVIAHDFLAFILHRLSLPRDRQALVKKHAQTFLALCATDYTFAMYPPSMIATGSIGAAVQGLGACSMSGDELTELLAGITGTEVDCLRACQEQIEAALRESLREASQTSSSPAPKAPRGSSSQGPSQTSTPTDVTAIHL
| Substitution | normalised enrichment score |
| --- | --- |
| R5I | 0.116 |
| D11Y | 0.219 |
| K4C | -0.101 |
| R5P | 0.111 |
| K4W | -0.657 |
| L7V | 0.136 |
| K4H | 0.291 |
| E10W | -0.179 |

Sample 2
Target: vanadate, free oxyanion
Technique: microfluidic competitive inhibition
Matrix: in vitro, cell-free expressed
Concentration: not given
Notes: derived from inhibition constants, unchanged parent 676 nM
Reading: lower = stronger binding
Parent: PafA, mature enzyme, eGFP fusion (Elizabethkingia meningoseptica, UniProt Q9KJX5); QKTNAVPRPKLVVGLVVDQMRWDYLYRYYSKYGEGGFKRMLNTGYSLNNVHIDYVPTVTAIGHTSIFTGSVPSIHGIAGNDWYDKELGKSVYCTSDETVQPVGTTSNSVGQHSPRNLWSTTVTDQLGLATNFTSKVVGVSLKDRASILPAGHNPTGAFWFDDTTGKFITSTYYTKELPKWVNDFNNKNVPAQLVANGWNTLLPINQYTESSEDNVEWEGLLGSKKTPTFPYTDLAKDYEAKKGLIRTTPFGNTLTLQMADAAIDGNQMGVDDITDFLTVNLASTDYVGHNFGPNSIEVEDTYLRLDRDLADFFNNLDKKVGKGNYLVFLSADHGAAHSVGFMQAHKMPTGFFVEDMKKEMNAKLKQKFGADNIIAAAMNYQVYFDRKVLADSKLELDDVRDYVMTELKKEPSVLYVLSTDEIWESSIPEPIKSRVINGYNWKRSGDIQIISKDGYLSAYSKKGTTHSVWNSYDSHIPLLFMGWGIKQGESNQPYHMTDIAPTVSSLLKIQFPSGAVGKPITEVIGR
| Substitution | oxyanion analog dissociation constant [µM] |
| --- | --- |
| L303G | 0.87 |
| Y415G | 0.662 |
| F229G | 0.596 |
| T274V | 0.679 |
| N4G | 0.625 |
| D473V | 0.755 |
| W217V | 0.847 |
| T164G | 0.747 |

Single results of other studies
| SMILES | target | observed | mode | concentration | relative to | measurement | value |
| --- | --- | --- | --- | --- | --- | --- | --- |
| O=C(NCc1ncc(C(F)(F)F)cc1Cl)c1ccc2c(c1)C1(CCS(=O)(=O)CC1)[C@H](C1CC1)N2S(=O)(=O)c1ccc(F)cc1 | DRD5 (Homo sapiens, UniProt P21918) | ligand displacement | – | 10 µM | – | inhibition | 19.1% |
| COc1ccc2c(c1)/C(=C/c1cnc[nH]1)C(=O)N2 | Aurora kinase A (AURKA, Homo sapiens, UniProt O14965) | enzyme activity | inhibitor | 0.5 µM | control | remaining activity | 69% |

Some of these lines once more (sample 1):
| Substitution | normalised enrichment score |
| --- | --- |
| K4H | 0.291 |
| K4W | -0.657 |
